Measured values gathered from unrelated publications.
± marks the error that the study gave.

| Compound | system | conditions | tissue uptake |
| --- | --- | --- | --- |
| CC[C@H](C)[C@H](NC(=O)[C@H](CCCNC(=N)N)NC(=O)[C@H](CCCCN)NC(=O)[C@H](Cc1ccc(O)cc1)NC(=O)[C@H](CC(=O)O)NC(=O)[C@H](C)NC(=O)CNC(=O)CCOCCOCCOCCNC(=O)CN1CCN(CC(=O)O)CCN(CC(=O)O)CCN(CC(=O)O)CC1)C(=O)N[C@H](C(=O)N[C@@H](CC(C)C)C(=O)N[C@@H](CCCCN)C(=O)N[C@H](C(=O)N[C@@H](CC(N)=O)C(N)=O)C(C)C)[C@@H](C)O [copper-64 labelled] | C57BL/6J mouse male, B16-F10 tumour, small intestine | intravenous, 1.85 MBq, 100 min, 67Ga complex | 2.21 ± 0.495 %ID/g |
| C[C@H](O)[C@@H](NC(=O)[C@H]1CCCN1C(=O)[C@@H](CCCCN)NC(=O)[C@@H](CO)NC(=O)[C@@H](Cc1ccc(O)cc1)NC(=O)[C@@H](CC(N)=O)NC(=O)CCOCCOCCOCCNC(=O)CN1CCN(CC(=O)O)CCN(CC(=O)O)CCN(CC(=O)O)CC1)C(=O)N[C@H](CC(=O)O)C(=O)N[C@H](CCCNC(=N)N)C(=O)N[C@H](CCC(N)=O)C(=O)N[C@H](Cc1ccc(O)cc1)C(=O)N[C@H](Cc1c[nH]cn1)C(=O)N[C@H](Cc1ccccc1)C(N)=O [gallium-68 labelled] | BALB/c nude mice U-87 MG tumour, brain | intravenous, 1.85 MBq, 0.5 h, radiolabelled | 0.11 ± 0.08 %ID/g |
| CN1Cc2cc(Cl)ccc2-n2c(nnc2C2CCN(c3cccc([18F])n3)CC2)C1 | C57BL/6 mouse male, blood | intravenous, 3.7 MBq, 1 min | 5.66 ± 2.07 %ID/g |
| CSCC[C@H](NC(=O)CNC(=O)[C@H](CCCCN)NC(=O)[C@H](CC(C)C)NC(=O)[C@@H]1CCCN1C(=O)[C@H](CO)NC(=O)[C@H](Cc1c[nH]cn1)NC(=O)[C@H](Cc1c[nH]c2ccccc12)NC(=O)[C@H](CCCNC(=N)N)NC(=O)[C@H](CC(C)C)NC(=O)[C@H](CCCNC(=N)N)NC(=O)[C@H](Cc1c[nH]c2ccccc12)NC(=O)[C@H](CS)NC(=O)CCCCCNC(=O)CN1CCN(CC(=O)O)CCN(CC(=O)O)CCN(CC(=O)O)CC1)C(=O)O [copper-64 labelled] | mouse, male, B16-F10 tumour, tumour | intravenous, 1.85 MBq, 0.5 h | 4.67 %ID/g |
| CC[C@H](C)[C@H](NC(=O)[C@H](CCCNC(=N)N)NC(=O)[C@H](CCCCN)NC(=O)[C@H](Cc1ccc(O)cc1)NC(=O)[C@H](CC(=O)O)NC(=O)[C@H](C)NC(=O)CNC(=O)CCOCCOCCOCCNC(=O)CN1CCN(CC(=O)O)CCN(CC(=O)O)CCN(CC(=O)O)CC1)C(=O)N[C@H](C(=O)N[C@H](C(=O)N[C@@H](CCCCN)C(=O)N[C@H](C(=O)N[C@@H](CC(N)=O)C(N)=O)C(C)C)C(C)C)[C@@H](C)O [copper-64 labelled] | C57BL/6J mouse male, B16-F10 tumour, small intestine | intravenous, 1.85 MBq, 5 min, 67Ga complex | 2.1 ± 0.103 %ID/g |
| CC(C)C[C@@H](NC(=O)[C@@H](CCCNC(=N)N)NC(=O)[C@@H](Cc1c[nH]cn1)NC(=O)[C@@H](Cc1c[nH]c2ccccc12)NC(=O)[C@@H](Cc1c[nH]cn1)NC(=O)[C@@H](Cc1ccccc1)NC(=O)[C@H](NC(=O)[C@@H](Cc1ccc(O)cc1)NC(=O)CNC(=O)CNC(=O)CCOCCOCCOCCNC(=O)CN1CCN(CC(=O)O)CCN(CC(=O)O)CC1)[C@H](C)O)C(=O)N[C@H](CC(N)=O)C(=O)N1CCC[C@@H]1C(=O)O [gallium-68 labelled] | C57BL/6 mice, male, intestines | intravenous, 1.85 MBq, 60 min, with: GP12 blocking | 1.28 ± 0.41 %ID/g |
| CCCC[C@H]1C(=O)N(C)[C@@H](CCCC)C(=O)N[C@@H](CCCNC(=O)CN2CCN(CC(=O)O)CCN(CC(=O)O)CCN(CC(=O)O)CC2)C(=O)N[C@H](C(=O)NCC(N)=O)CSCC(=O)N[C@@H](Cc2ccc(O)cc2)C(=O)N(C)[C@@H](C)C(=O)N[C@@H](CC(N)=O)C(=O)N2CCC[C@H]2C(=O)N[C@@H](Cc2c[nH]cn2)C(=O)N[C@@H](CC(C)C)C(=O)N(C)CC(=O)N[C@@H](Cc2c[nH]c3ccccc23)C(=O)N[C@@H](CO)C(=O)N[C@@H](Cc2c[nH]c3ccccc23)C(=O)N1C [gallium-68 labelled] | NOD/SCID mice, CHO-hPD-L1 xenograft, brain | 60 min, atezolizumab 10 mg/kg pretreatment | 0.39 ± 0.04 %ID/g |
| CC[C@H](C)[C@H](NC(=O)[C@H](CCCCN)NC(=O)CNC(=O)[C@H](CC(C)C)NC(=O)[C@H](Cc1ccccc1)NC(=O)[C@H](CCCCN)NC(=O)[C@H](CO)NC(=O)[C@H](Cc1ccccc1)NC(=O)[C@H](Cc1c[nH]c2ccccc12)NC(=O)[C@H](CCC(N)=O)NC(=O)[C@@H](NC(=O)[C@H](Cc1ccccc1)NC(=O)CCCCCNC(=O)CN1CCN(CC(=O)O)CCN(CC(=O)O)CCN(CC(=O)O)CC1)C(C)C)C(=O)N[C@@H](CCC(=O)O)C(=O)N1CCC[C@H]1C(=O)N[C@@H](CC(=O)O)C(=O)N[C@H](C(=O)N[C@@H](CO)C(=O)N[C@@H](CCC(N)=O)C(=O)N[C@H](C(=O)N[C@@H](CCC(N)=O)C(=O)N[C@@H](CC(=O)O)C(=O)N1CCC[C@H]1C(=O)N[C@@H](CC(N)=O)C(=O)N[C@@H](CC(=O)O)C(=O)N[C@@H](CCC(N)=O)C(=O)N[C@@H](Cc1ccc(O)cc1)C(=O)N[C@@H](CCC(=O)O)C(=O)N1CCC[C@H]1C(=O)N[C@@H](Cc1ccccc1)C(=O)O)C(C)C)C(C)C [copper-64 labelled] | GZMB-/- mice, CT26 tumour-bearing, pancreas | 2 h, checkpoint inhibitor-treated | 0.76 ± 0.1 %ID/g |
